Measurements collected from several papers.
Protocols differ between the studies behind these lines.
Cell line: MCF-10A

| SMILES | test | conditions | endpoint | result |
| --- | --- | --- | --- | --- |
| C[C@H](NC(=O)[C@H](CCCNC(=N)N)NC(=O)[C@H](CCCNC(=N)N)NC(=O)[C@@H]1CCCN1C(=O)CNC(=O)[C@H](CCCNC(=N)N)NC(=O)[C@H](CCCNC(=N)N)NC(=O)CN)C(=O)N[C@@H](CC(N)=O)C(=O)N[C@@H](CCC(N)=O)C(=O)N[C@@H](CC(N)=O)C(=O)NCC(=O)N[C@H](C(=O)N[C@@H](CCCNC(=N)N)C(=O)N[C@@H](CCCNC(=N)N)C(=O)N[C@@H](CCCNC(=N)N)C(=O)N[C@@H](CCCNC(=N)N)C(=O)N[C@@H](CCCNC(=N)N)C(=O)N[C@@H](CCCNC(=N)N)C(=O)N[C@H](C(N)=O)[C@@H](C)O)[C@@H](C)O | cell viability, CellTiter-Blue | 24 h, serum-free medium | IC50 | > 100 µM |
| CC(=O)N1CCCC[C@H]1C(=O)NC(C)(C)C(=O)N1CCCC[C@H]1C(=O)NC(C)(C)C(=O)NC(C)(C)C(=O)N[C@@H](CC(C)C)C(=O)NC[C@@H](C)C(=O)NCC(=O)NC(C)(C)C(=O)NC(C)(C)C(=O)N1CCCC[C@H]1C(=O)NC(C)(C)C(=O)NCC(=O)N[C@@H](CC(C)C)C(=O)NC(C)(C)C(=O)N[C@@H](CC(C)C)C[N+]1=C2CCCN2CCC1 | cell growth or viability, SRB | 48 h | GI50 | 0.323 µM |
| C=CC[P](c1ccccc1)(c1ccccc1)[Pt]([S]c1ccccn1)([S]c1ccccn1)[P](CC=C)(c1ccccc1)c1ccccc1 | cell growth or viability, MTT | – | IC50 | 38.4 µM |
| C#CCN[C@@H]1C=C[C@]2(O[C@H]([C@@H](CC)C(=O)[C@@H](C)[C@@H](O)[C@H](C)[C@@H]3O[C@@H]([C@@H](CC)C(=O)O)CC[C@@H]3C)[C@@H](C)C[C@H]2C)O[C@@]12CC[C@@](C)([C@H]1CC[C@](O)(CC)[C@H](C)O1)O2 | cell growth or viability, resazurin | 72 h | IC50 | 0.12 µM |
| C=CC[P](c1ccccc1)(c1ccccc1)[Pt]([S]c1nc2ccccc2[nH]1)([S]c1nc2ccccc2[nH]1)[P](CC=C)(c1ccccc1)c1ccccc1 | cell growth or viability, MTT | – | IC50 | 47.1 µM |
| CC(=O)N1CCCC[C@H]1C(=O)NC(C)(C)C(=O)N1CCCC[C@H]1C(=O)NC(C)(C)C(=O)NC(C)(C)C(=O)N[C@@H](CC(C)C)C(=O)N[C@H](C)CC(=O)NCC(=O)NC(C)(C)C(=O)NC(C)(C)C(=O)N1CCCC[C@H]1C(=O)NC(C)(C)C(=O)NCC(=O)N[C@@H](CC(C)C)C(=O)NC(C)(C)C(=O)N[C@@H](CC(C)C)C[N+]1=C2CCCN2CCC1 | cell growth or viability, SRB | 48 h | GI50 | > 1 µM |
| O=C(O)[c-]1cccc1.O=C(Oc1ccc(-n2cccc2)cc1)[c-]1cccc1.[Fe+2] | cell growth or viability, MTT | – | IC50 | 219 µM |
| CC(=O)N1CCCC[C@H]1C(=O)NC(C)(C)C(=O)N1CCCC[C@H]1C(=O)NC(C)(C)C(=O)NC(C)(C)C(=O)N[C@@H](CC(C)C)C(=O)NCCC(=O)N[C@@H](C)C(=O)NC(C)(C)C(=O)NC(C)(C)C(=O)N1CCCC[C@H]1C(=O)NC(C)(C)C(=O)NCC(=O)N[C@@H](CC(C)C)C(=O)NC(C)(C)C(=O)N[C@@H](CC(C)C)C[N+]1=C2CCCN2CCC1 | cell growth or viability, SRB | 48 h | GI50 | 0.213 µM |
| C=CC[P](c1ccccc1)(c1ccccc1)[Pt]([Cl])([Cl])[P](CC=C)(c1ccccc1)c1ccccc1 | cell growth or viability, MTT | – | IC50 | 68.7 µM |
| N=C(N)NCCC[C@H](NC(=O)[C@H](CCCNC(=N)N)NC(=O)[C@@H]1CCCN1C(=O)[C@H](CCCNC(=N)N)NC(=O)[C@H](CCCNC(=N)N)NC(=O)[C@H](CCCNC(=N)N)NC(=O)[C@H](Cc1c[nH]c2ccccc12)NC(=O)[C@H](CCCNC(=N)N)NC(=O)[C@H](CCCNC(=N)N)NC(=O)[C@H](CCCNC(=N)N)NC(=O)[C@H](CCCNC(=N)N)NC(=O)[C@H](CCCNC(=N)N)NC(=O)[C@H](Cc1c[nH]c2ccccc12)NC(=O)[C@H](CCCNC(=N)N)NC(=O)[C@H](CCCNC(=N)N)NC(=O)[C@H](Cc1ccc(O)cc1)NC(=O)[C@H](CCCNC(=N)N)NC(=O)[C@H](CCCNC(=N)N)NC(=O)[C@H](CCCNC(=N)N)NC(=O)[C@@H](N)Cc1c[nH]c2ccccc12)C(N)=O | – | 2.5, 18.2, 40.0 µM, 30 min, 37 °C, outcome no effect | zeta potential change | no effect |

Excerpt of the above:
| SMILES | test | conditions | endpoint | result |
| --- | --- | --- | --- | --- |
| C=CC[P](c1ccccc1)(c1ccccc1)[Pt]([S]c1ccccn1)([S]c1ccccn1)[P](CC=C)(c1ccccc1)c1ccccc1 | cell growth or viability, MTT | – | IC50 | 38.4 µM |
